{"data": "Measurements from different studies", "note": "Every numbered part comes from another study and shows a few of its results, in no order."}
{"data": "Study 1", "target": "Replicase polyprotein 1ab, polymerase (rep, Severe acute respiratory syndrome coronavirus 2, UniProt P0DTD1)", "effect on": "enzyme activity", "action": "inhibitor", "concentration": "20 µM"}
{"SMILES": "CCc1ccc2c(-c3cccc(Cl)c3)nc(=O)n(CC)c2n1", "inhibition [%]": -2.47}
{"SMILES": "CCOc1cc2ncc(C#N)c(Nc3ccc(OCc4cccc(F)c4)c(Cl)c3)c2cc1NC(=O)/C=C/CN(C)C", "inhibition [%]": -4.49}
{"SMILES": "O=C(O)c1ccc(CN2CCC(CN[C@@H]3C[C@H]3c3ccccc3)CC2)cc1", "inhibition [%]": -2.94}
{"SMILES": "CN(C)C(=O)Nc1cccc(-c2ccc(N(C)C)cc2)c1", "inhibition [%]": -1.99}
{"SMILES": "Cn1cc(C(=O)OCC2CCN(CCNS(C)(=O)=O)CC2)c2ccccc21", "inhibition [%]": 3.76}
{"SMILES": "NCCCCN", "inhibition [%]": 30.5}
{"SMILES": "CC(=O)Nc1ccc(O)cc1", "inhibition [%]": -16.2}
{"SMILES": "COc1ccc([C@@H]2CNC(=O)C2)cc1OC1CCCC1", "inhibition [%]": -1.08}
{"SMILES": "CC(NC(C)(C)C)C(=O)c1cccc(Cl)c1 (stereo not shown)", "inhibition [%]": 3.52}
{"SMILES": "CCCN1CCO[C@@H]2c3cc(O)ccc3OC[C@H]21", "inhibition [%]": 8.18}
{"SMILES": "CS[C@H]1SC[C@H]2C(=O)N(C)[C@@H](C(C)C)C(=O)OC[C@@H](NC(=O)c3cnc4ccccc4n3)C(=O)N[C@@H](C)C(=O)N(C)[C@@H]1C(=O)N(C)[C@@H](C(C)C)C(=O)OC[C@@H](NC(=O)c1cnc3ccccc3n1)C(=O)N[C@@H](C)C(=O)N2C", "inhibition [%]": 2.79}
{"SMILES": "O=C(CCn1cnc2c(=O)[nH]cnc21)Nc1ccc(C(=O)O)cc1", "inhibition [%]": -2.26}
{"SMILES": "NS(=O)(=O)c1ccc(NC(=O)Nc2ccc(F)cc2)cc1", "inhibition [%]": -7.34}
{"SMILES": "COc1ccc(CCNCC(O)COc2cccc(C)c2)cc1OC (stereo not shown)", "inhibition [%]": 1.76}
{"SMILES": "COC(=O)c1cc(OC)c2c(c1-c1c(CO)cc(OC)c3c1OCO3)OCO2", "inhibition [%]": -0.46}
{"SMILES": "Clc1ccc(C(Cn2ccnc2)OCc2ccsc2Cl)c(Cl)c1 (stereo not shown)", "inhibition [%]": -5.89}
{"SMILES": "CC(C)(C)CC(=O)Nc1c(F)cc(C(=O)N=c2sccn2COP(=O)(O)O)cc1F", "inhibition [%]": 17.2}
{"SMILES": "COc1cc(C(=O)NCC2(N(C)C)CCCC2)cc(OC)c1OCc1ccccc1", "inhibition [%]": 3.08}
{"SMILES": "CCCOc1ccc2[nH]cc(C3=CCNCC3)c2n1", "inhibition [%]": 3.91}
{"SMILES": "CCC(=O)O[C@]1(C(=O)CO)CC[C@H]2[C@@H]3CCC4=CC(=O)CC[C@]4(C)[C@H]3CC[C@@]21C", "inhibition [%]": -0.68}
{"SMILES": "N[C@@H]1c2cccnc2[C@H](OC(=O)N2CCC(n3c(=O)[nH]c4ncccc43)CC2)CC[C@H]1c1cccc(F)c1F", "inhibition [%]": 2.79}
{"SMILES": "CN(C)[C@@H]1C(O)=C(C(N)=O)C(=O)[C@@]2(O)C(O)=C3C(=O)c4c(O)cccc4[C@@](C)(O)[C@H]3C[C@@H]12", "inhibition [%]": 25.2}
{"SMILES": "CN(Cc1ccccc1)C(=O)[C@H](Cc1ccc2ccccc2c1)NC(=O)[C@@H]1C[C@@H](O)CN1C(=O)c1cn(C)c2ccccc12", "inhibition [%]": -3.81}
{"SMILES": "CCCOc1ccc(C(=O)OCCN(CC)CC)cc1N", "inhibition [%]": 1.86}
{"SMILES": "Cc1ncc[nH]1", "inhibition [%]": -2.17}
{"data": "Study 2", "target": "Replicase polyprotein 1ab, main protease (rep, Severe acute respiratory syndrome coronavirus 2, UniProt P0DTD1)", "effect on": "enzyme activity", "action": "inhibitor", "concentration": "20 µM", "notes": "hit confirmation"}
{"SMILES": "CCOC(=O)c1ccc(N2NC(=O)/C(=C/c3ccc([N+](=O)[O-])o3)C2=O)cc1", "inhibition [%]": 43.8}
{"SMILES": "CN1CCN(CCCCN2C(=O)CN(/N=C/c3ccc(-c4ccc(Cl)cc4)o3)C2=O)CC1", "inhibition [%]": 41.1}
{"SMILES": "Cc1cc(O)c2c(c1)C(=O)c1cccc(O)c1C2=O", "inhibition [%]": 22.5}
{"SMILES": "C=Cc1c(C)c2cc3nc(c(CC(=O)O)c4[nH]c(cc5nc(cc1[nH]2)C(C)=C5CC)c(C)c4C(=O)O)C(CCC(=O)O)C3C (stereo not shown)", "inhibition [%]": 40.2}
{"data": "Study 3", "target": "Eukaryotic initiation factor 4A-I (EIF4A1, Homo sapiens, UniProt P60842, residues 1-406, full length assumed)", "technique": "RNA Bind-n-Seq", "form": "RNA", "medium": "in vitro", "concentration": "90 pmol", "notes": "4-mer, random 30-nt RNA, single round", "added": "3 µM DMDA-PatA, 2 mM ADP, 2 mM phosphate", "reference": "input library", "reading": "higher = stronger binding", "chain of UniProt P60842 (whole entry, looked up)": "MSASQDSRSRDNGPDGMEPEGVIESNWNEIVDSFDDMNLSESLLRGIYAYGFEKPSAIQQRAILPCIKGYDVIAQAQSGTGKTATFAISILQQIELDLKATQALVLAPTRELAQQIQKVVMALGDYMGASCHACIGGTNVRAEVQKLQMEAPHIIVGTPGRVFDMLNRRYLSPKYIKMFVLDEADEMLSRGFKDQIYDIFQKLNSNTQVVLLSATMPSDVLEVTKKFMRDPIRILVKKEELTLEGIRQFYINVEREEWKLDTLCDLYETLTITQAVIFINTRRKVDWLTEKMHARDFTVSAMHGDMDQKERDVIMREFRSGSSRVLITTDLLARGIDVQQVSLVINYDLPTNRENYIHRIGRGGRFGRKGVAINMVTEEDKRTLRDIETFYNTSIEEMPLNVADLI"}
{"Oligonucleotide": "UAUC", "4-mer enrichment": "0.678 fold"}
{"Oligonucleotide": "AUAU", "4-mer enrichment": "0.979 fold"}
{"Oligonucleotide": "GAUC", "4-mer enrichment": "0.67 fold"}
{"Oligonucleotide": "GACA", "4-mer enrichment": "0.809 fold"}
{"data": "Study 4", "target": "Ras GTPase-activating protein-binding protein 1, full length (G3BP1, Homo sapiens, UniProt Q13283)", "technique": "RNA Bind-n-Seq", "form": "RNA", "medium": "in vitro", "concentration": "200 nM", "notes": "whole 134-nt RNA, ends assumed", "added": "150 mM KCl", "reference": "input library", "reading": "higher = stronger binding", "chain of UniProt Q13283 (whole entry, looked up)": "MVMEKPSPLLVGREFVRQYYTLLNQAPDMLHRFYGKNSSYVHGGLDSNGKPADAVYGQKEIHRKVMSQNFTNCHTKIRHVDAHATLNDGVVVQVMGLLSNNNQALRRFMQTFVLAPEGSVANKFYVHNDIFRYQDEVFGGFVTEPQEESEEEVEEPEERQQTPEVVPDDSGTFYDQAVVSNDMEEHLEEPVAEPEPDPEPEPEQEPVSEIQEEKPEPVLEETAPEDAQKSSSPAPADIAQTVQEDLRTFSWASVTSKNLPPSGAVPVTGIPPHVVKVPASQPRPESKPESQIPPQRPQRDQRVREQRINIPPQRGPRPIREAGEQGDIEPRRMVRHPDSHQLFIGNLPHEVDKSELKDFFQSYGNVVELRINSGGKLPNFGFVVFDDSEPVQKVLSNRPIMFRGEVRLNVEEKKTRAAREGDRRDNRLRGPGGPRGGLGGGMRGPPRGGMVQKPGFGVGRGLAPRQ"}
{"Oligonucleotide": "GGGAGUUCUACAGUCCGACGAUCCAAGUCCUGUGCUACACAUCGUAUGUACCGAAUCGGGAGGGAAAAAGGGAAAGGGAAAGUAUUAUGUUACGCCGUUCGGAUCUGCACUUCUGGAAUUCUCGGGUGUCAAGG", "log2 enrichment": 0.578}
{"Oligonucleotide": "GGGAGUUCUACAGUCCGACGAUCCUGUGCUACACAUCGUAUGUACCGAAUCGGGAAAAAAAGGGGAAAAAAAGGGGAAAAAAAGGAAAGUAUUAUGUUACGCCGUUCGGAUCUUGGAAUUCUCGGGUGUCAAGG", "log2 enrichment": -0.632}
{"Oligonucleotide": "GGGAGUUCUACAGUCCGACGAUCUGGCCCCGGUGGCAUGCGGGGAGGAAGAGGUGGCCUCAUGGAUCGUGGUGGUCCCGGUGGAAUGUUCAGAGGUGGCCGUGGUGGAGACAGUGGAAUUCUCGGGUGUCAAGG", "log2 enrichment": 0.00746}
{"Oligonucleotide": "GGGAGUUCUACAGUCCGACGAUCUCCUGUGCUACACAUCGUAUGUACCGAAUCGGGGUUUUUUGGGUUUUUUGGGUUUUUUGGAAAGUAUUAUGUUACGCCGUUCGGAUCUGCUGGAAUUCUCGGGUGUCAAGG", "log2 enrichment": -0.258}
{"Oligonucleotide": "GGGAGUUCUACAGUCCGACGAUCAGUCCUGUGCUACACAUCGUAUGUACCGAAUCGGGAAAAAGGGAAAAAAAGGGAGGGAAAGUAUUAUGUUACGCCGUUCGGAUCUGCACUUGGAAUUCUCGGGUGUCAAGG", "log2 enrichment": 0.0949}
{"Oligonucleotide": "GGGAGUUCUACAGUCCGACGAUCCACAGACAACACGCAGCCACACAGACACAGAGGGAAGGGGUUGGGAUGGGGACAGGGUGCACAGCAGGGCGGGGUAGGACCCCAGCCCCUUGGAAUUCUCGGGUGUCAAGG", "log2 enrichment": 1.59}
{"Oligonucleotide": "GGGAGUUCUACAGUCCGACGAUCCCUCAAGUCCUGUGCUACACAUCGUAUGUACCGAAUCGGCCGGCCGGGCCGGGAAAGUAUUAUGUUACGCCGUUCGGAUCUGCACUUCCAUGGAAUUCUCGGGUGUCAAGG", "log2 enrichment": -0.37}
{"Oligonucleotide": "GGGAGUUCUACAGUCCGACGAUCCAAGUCCUGUGCUACACAUCGUAUGUACCGAAUCGGUGGUUUUUGGAAAAAAAGGAAAGUAUUAUGUUACGCCGUUCGGAUCUGCACUUCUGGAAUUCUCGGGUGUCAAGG", "log2 enrichment": -0.677}
{"data": "Study 5", "organism": "Vesicular stomatitis virus", "effect on": "pseudovirus infection", "technique": "FDA-approved drug library screen", "concentration": "concentration not given", "notes": "SARS-CoV-2 spike pseudotype", "reference": "vehicle"}
{"SMILES": "NC[C@@H]1O[C@H](O[C@H]2[C@@H](O)[C@H](O[C@@H]3[C@@H](O)[C@H](N)C[C@H](N)[C@H]3O[C@H]3O[C@H](CN)[C@@H](O)[C@H](O)[C@H]3N)O[C@@H]2CO)[C@H](N)[C@@H](O)[C@@H]1O.O=S(=O)(O)O", "GFP-positive cells [%]": 89.7}
{"SMILES": "FC(F)(F)C(Cl)Br (stereo not shown)", "GFP-positive cells [%]": 90.5}
{"SMILES": "C=C1c2c(Cl)ccc(O)c2C(=O)C2=C(O)[C@]3(O)C(=O)C(C(N)=O)=C(O)[C@@H](N(C)C)[C@@H]3[C@@H](O)[C@H]12.O=C(O)c1cc(S(=O)(=O)O)ccc1O", "GFP-positive cells [%]": 127}
{"data": "Study 6", "target": "RING finger protein unkempt homolog, zinc fingers 1-6, GST-SBP tag (UNK, Homo sapiens, UniProt Q9C0B0, residues 30-357)", "technique": "RNA Bind-n-Seq", "form": "RNA", "medium": "in vitro", "concentration": "not given", "notes": "RNA with constant flanks, ends assumed", "reference": "input RNA pool", "reading": "higher = stronger binding", "Construct (chain)": "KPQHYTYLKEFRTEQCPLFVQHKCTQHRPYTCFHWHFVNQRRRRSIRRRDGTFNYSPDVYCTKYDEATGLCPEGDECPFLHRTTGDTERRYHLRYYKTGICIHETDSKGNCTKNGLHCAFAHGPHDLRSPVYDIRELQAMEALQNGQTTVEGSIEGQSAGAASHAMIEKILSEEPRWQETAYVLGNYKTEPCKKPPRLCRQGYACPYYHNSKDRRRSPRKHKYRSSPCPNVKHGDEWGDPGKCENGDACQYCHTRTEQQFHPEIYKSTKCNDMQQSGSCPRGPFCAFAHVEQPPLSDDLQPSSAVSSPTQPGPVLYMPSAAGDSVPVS"}
{"Oligonucleotide": "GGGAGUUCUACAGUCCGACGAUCAGACGACGGGAAUAUCAGUUAUCUGACUCUACCAAAUACUAUCUGAAUGACUUGGACCGUGCCGCCGACCCUUCCUAUCUGCCUACACAACAAGACGUGCUUAGAGUUCGAGUCCCCACUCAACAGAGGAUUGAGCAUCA", "bound/input enrichment [ratio]": 0.208}
{"Oligonucleotide": "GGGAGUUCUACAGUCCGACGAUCUGAAUUUUCAAUGUUUAAUUGACAUGGAUCGGAUCUUAGCAUGGUCUUUUCUGUGACUGCCCGCACUGUAUUGUAAUUUUUCCAUUUUAAGCCUUUUCAUUGCACCUCCAGCCCCUCUGCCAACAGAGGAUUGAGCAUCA", "bound/input enrichment [ratio]": 1.45}
{"Oligonucleotide": "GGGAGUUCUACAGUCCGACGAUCGAGUCCUAGGAUGUUUCUCUUGCCUCCUUCUUGCUUUUUUCCUUUCCCCCAGUAGAGACCCCGCAAAGCUUUACAAAGCCCCUGAAAGUAGAUCCCAGAGAGAAAGUUUGCAGUCAGGUGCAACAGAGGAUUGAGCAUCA", "bound/input enrichment [ratio]": 0.649}
{"Oligonucleotide": "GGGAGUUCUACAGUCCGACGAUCGACCUAAUCCAGGAUGUUGAAUGGGAUUAUUGCCAUCUUACACCAUAUUUUUGUAAAAUGCCGCUUAAUCAUAAUCUCACAAUGAAGAUUUUGCAUCACUUUUGCUAUUAUCAUUCUUUUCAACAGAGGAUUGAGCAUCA", "bound/input enrichment [ratio]": 0.119}
{"Oligonucleotide": "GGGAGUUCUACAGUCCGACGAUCGUUAUCAAGUUCGAUACAGAGGAGGAGGCUAUAGCAAUCGCUAACGCAGCUGAUGUUGGGUCCGCAGGUUAUUUUUACUCUCAAGACCCAGCCCAGAUCUGGAGAGUGGCAGAGCAGCUGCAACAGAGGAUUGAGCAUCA", "bound/input enrichment [ratio]": 0.217}
{"Oligonucleotide": "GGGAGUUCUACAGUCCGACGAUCAUAUUAAACUGGUAUUUUCAAACAAUAGGAAACUUUUUUUUUUUUUUUUUUUUUUUACAGUUCCGUGUAUCUGGUUUCUACAUGGAAGACUAAACUCAUGCUUAUUGCUAAAUGUGGUCUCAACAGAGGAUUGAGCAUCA", "bound/input enrichment [ratio]": 29.3}
{"Oligonucleotide": "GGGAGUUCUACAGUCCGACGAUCCUGACCAGAGUCUCUGAAGACCCCAUCCAACGCUCCAAUGGCCAGCAACAACACCGCCAGCACCGCACAAGCCAGGAAGCUGGUAGAACAGCUGAAGAUGGAAGCCAACAUCGACAGGAUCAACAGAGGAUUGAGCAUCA", "bound/input enrichment [ratio]": 0.0769}
{"Oligonucleotide": "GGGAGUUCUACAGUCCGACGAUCGAAUUUGGGCAGGUUUUGGCUUCCUGUUCUUUUGACCGAACAGCUGCUGUAUGGGAAGAAACCGCCGGAGAAUCAAAUGAUAAACUGCGAGGACAGAGCCACUGGGUUAAAAGGACAACUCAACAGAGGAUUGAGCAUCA", "bound/input enrichment [ratio]": 0.346}
